Results pooled from the literature.
± gives the spread as reported.
U2AF2: U2AF2 148-342 (Homo sapiens, UniProt P26368)
Sequence of UniProt P26368 (whole entry, looked up): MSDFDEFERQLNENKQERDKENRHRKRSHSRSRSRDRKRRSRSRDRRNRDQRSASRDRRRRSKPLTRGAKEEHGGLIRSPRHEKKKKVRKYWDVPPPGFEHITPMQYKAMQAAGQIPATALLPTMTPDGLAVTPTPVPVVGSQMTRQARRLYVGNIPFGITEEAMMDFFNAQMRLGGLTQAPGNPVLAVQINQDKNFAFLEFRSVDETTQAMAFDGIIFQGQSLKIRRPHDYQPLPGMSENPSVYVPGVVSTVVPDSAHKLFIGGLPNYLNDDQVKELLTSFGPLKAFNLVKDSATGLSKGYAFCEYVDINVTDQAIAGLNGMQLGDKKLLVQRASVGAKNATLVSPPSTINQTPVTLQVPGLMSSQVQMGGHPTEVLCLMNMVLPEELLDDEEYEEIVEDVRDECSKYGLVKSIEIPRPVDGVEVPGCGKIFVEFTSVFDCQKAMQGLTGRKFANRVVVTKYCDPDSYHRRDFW
B1: enzyme (Lactiplantibacillus plantarum, UniProt Q06115); chain CTAITYQSYNNYFGRNFDYEISYNEMVTITPRKYPLVFRKVENLDHHYAIIGITADVESYPLYYDAMNEKGLCIAGLNFAGYADYKKYDADKVNITPFELIPWLLGQFSSVREVKKNIQKLNLVNINFSEQLPLSPLHWLVADKQESIVIESVKEGLKIYDNPVGVLTNNPNFDYQLFNLNNYRALSNSTPQNSFSEKVDLDSYSRGMGGLGLPGDLSSMSRFVRAAFTKLNSLSMQTESGSVSQFFHILGSVEQQKGLCEVTDGKYEYTIYSSCCDMDKGVYYYRTYDNSQINSVSLNHEHLDTTELISYPLRSEAQYYAVN
B2: enzyme (Bacteroides fragilis, UniProt Q5LAA3); chain MAMLEKIQETAAFLKGKMHTSPETAIILGTGLGSLANEITEKYEIKYEDIPNFPVSTVEGHSGKLIFGKLGNKEIMAMQGRFHYYEGYSMKEVTFPVRVMRELGIKTLFVSNASGGTNPEFEIGDLMIITDHINYFPEHPLRGKNIPYGPRFPDMSEAYDKELIRKADAIAAEKGIKVQHGIYIGTQGPTFETPAEYKLFHILGADAVGMSTVPEVIVANHCGIKVFGISVVTDLGVEGKIVEVSHEEVQKAADAAQPKMTTIMRELINRA
B3: PRPS1 (human); sequence looked up; chain PNIKIFSGSSHQDLSQKIADRLGLELGKVVTKKFSNQETCVEIGESVRGEDVYIVQSGCGEINDNLMELLIMINACKIASASRVTAVIPCFPYARQDKKDKSRAPISAKLVANMLSVAGADHIITMDLHASQIQGFFDIPVDNLYAEPAVLKWIRENISEWRNCTIVSPDAGGAKRVTSIADRLNVDFALIHKERKKANEVDRMVLVGDVKDRVAILVDDMADTCGTICHAADKLLSAGATRVYAILTHGIFSGPAISRINNACFEAVVVTNTIPQEDKMKHCSKIQVIDISMILAEAIRRTHNGESVSYLFSHVPL
B4: enzyme (Plasmodium falciparum, UniProt C0H484); chain MVREAHELLDGSRPIPIDKITYELSQNIILAFDNHENINNKDIQIEIEGRVGLVIDKNKNRIKLPINTDAIIENNYSDFQAGIDRESFEYLLDYFHNMTLKKRLSIRNNDNNNNNMDNNNNNMDNNNNIHIHNSGNNTNQTHSYDKNADDNKPTCNYSYDKKNACIYDFLELKTTKSIDKYYVIKNNNSRIRTTTYLNDDNKQETESMMIQSLQKDNLNIWNVYTGNNYDYFDDDEEDDDDDYNNNNNNNNGDTGTKTNIATNNTHGLTTSKSQHIYNNLVDKNDSIDYRISINIEYTKPISKLYLSKNTPVHERLKERTTFINTYLGLQVDMTKIKTKNNELYEVEIEIPSKTIFKAMSNLRNKKDSNYLHFICSNLVNNIRGICSQLNVFKKSKHMLKNTMITKLNNNSNNQNNLSLLPNHPNDDTISSKEKEKFKKYIHSVLPIVGDY
B5: enzyme (Bacillus subtilis, UniProt O31986); chain MKLSDIYLELKKGYADSLLYSDLSLLVNIMEYEKDIDVMSIQSLVAGYEKSDTPTITCGIIVYNESKRIKKCLNSVKDDFNEIIVLDSYSTDDTVDIIKCDFPDVEIKYEKWKNDFSYARNKIIEYATSEWIYFIDADNLYSKENKGKIAKVARVLEFFSIDCVVSPYIEEYTGHLYSDTRRMFRLNGKVKFHGKVHEEPMNYNHSLPFNFIVNLKVYHNGYNPSENNIKSKTRRNINLTEEMLRLEPENPKWLFFFGRELHLLDKDEEAIDYLKKSINNYKKFNDQRHFIDALVLLCTLLLQRNNYVDLTLYLDILETEYPRCVDVDYFRSAILLVDMQNKLTSLSNMIDEALTDERYSAINTTKDHFKRILISLNIQLENWERVKEISGEIKNDNMKKEIKQYLANSLHNIEHVLKGIEV
B6: enzyme H459A (Methanosarcina mazei, UniProt Q8PVB1); chain MSEQRSVPLREHLLALKPCRHGGLIQETSETYGIPENEILDFSANFNPLGSPFDYPENGLNFEDIIKKSCGKLLEYPDNRYVEFREAAARFVGLGVTPQSIVPGNGSTEIVRLVVESVIEKGDKVLLPWPTFGEYEMQCRITGAEPVCPSQEEVNTLPDEVLEEAKILFICNPNNPTGKLRTREELKVLAERCREHKTLLYVDEAFIELSDPSQSVADLPAENNYVFVMRSLTKDFAIPGIRMGFGIAPPAMADILNTARLSWNLGAIANNTGIALLNIEGGIDSPYLKKAREMILKEGETLKAKIDRIRGFEAGEVNVNFILVDVSKFMLNSSELTARLAARGVLVRDCVSFHGLGKNYIRVAVRTEKENDRLIAAIGDVITEWGREQAKNELQHVIEKASEEGIGGRKTCEYYPCHFEGQNCTFCFCPFYPCENEKTGGKWIQSSRGGRVWSCVDCALVHKKEIAQKILDCLMHEGDTDELVKVAWKEVMEPIL
B7: protein phosphatase 6 (human); sequence looked up; chain MAPLDLDKYVEIARLCKYLPENDLKRLCDYVCDLLLEESNVQPVSTPVTVCGDIHGQFYDLCELFRTGGQVPDTNYIFMGDFVDRGYYSLETFTYLLALKAKWPDRITLLRGNHESRQITQVYGFYDECQTKYGNANAWRYCTKVFDMLTVAALIDEQILCVHGGLSPDIKTLDQIRTIERNQEIPHKGAFCDLVWSDPEDVDTWAISPRGAGWLFGAKVTNEFVHINNLKLICRAHQLVHEGYKFMFDEKLVTVWSAPNYCYRCGNIASIMVFKDVNTREPKLFRAVPDSERVIPPRTTTPYFL
B8: enzyme (Methylibium petroleiphilum, UniProt A2SI32); chain PFAQIYLIEGRTEEQKRAVIEKVTQAMMEAVGAPKENVRVWIHDVPKENWGIGGVSAKALGR
B9: enzyme (Bacillus subtilis, UniProt P14949); chain AIVKATDQSFSAETSEGVVLADFWAPWCGPCKMIAPVLEELDQEMGDKLKIVKIDVDENQETAGKYGVMSIPTLLVLKDGEVVETSVGFKPKEALQELVNKHL
B10: enzyme (Azotobacter vinelandii, UniProt C1DN94); chain MSESPLRLDRLRDFVSALGELLDRHPDEESVLREGRSLLGELVRHDDWLPEEFAQPDPERYQQYLLHADSRQRFSVVSFVWGPGQTTPVHDHRVWGLIGMLRGAEDAQSFELGAEGLRPIGDPVRLSPGQVEAVSPRIGDIHRVFNASPDQPSISIHVYGANIGAVRRAVYLPDGSEKPFISGYSNQFLPNIWDQSKESARP
Sequence of UniProt P09546 (whole entry, looked up): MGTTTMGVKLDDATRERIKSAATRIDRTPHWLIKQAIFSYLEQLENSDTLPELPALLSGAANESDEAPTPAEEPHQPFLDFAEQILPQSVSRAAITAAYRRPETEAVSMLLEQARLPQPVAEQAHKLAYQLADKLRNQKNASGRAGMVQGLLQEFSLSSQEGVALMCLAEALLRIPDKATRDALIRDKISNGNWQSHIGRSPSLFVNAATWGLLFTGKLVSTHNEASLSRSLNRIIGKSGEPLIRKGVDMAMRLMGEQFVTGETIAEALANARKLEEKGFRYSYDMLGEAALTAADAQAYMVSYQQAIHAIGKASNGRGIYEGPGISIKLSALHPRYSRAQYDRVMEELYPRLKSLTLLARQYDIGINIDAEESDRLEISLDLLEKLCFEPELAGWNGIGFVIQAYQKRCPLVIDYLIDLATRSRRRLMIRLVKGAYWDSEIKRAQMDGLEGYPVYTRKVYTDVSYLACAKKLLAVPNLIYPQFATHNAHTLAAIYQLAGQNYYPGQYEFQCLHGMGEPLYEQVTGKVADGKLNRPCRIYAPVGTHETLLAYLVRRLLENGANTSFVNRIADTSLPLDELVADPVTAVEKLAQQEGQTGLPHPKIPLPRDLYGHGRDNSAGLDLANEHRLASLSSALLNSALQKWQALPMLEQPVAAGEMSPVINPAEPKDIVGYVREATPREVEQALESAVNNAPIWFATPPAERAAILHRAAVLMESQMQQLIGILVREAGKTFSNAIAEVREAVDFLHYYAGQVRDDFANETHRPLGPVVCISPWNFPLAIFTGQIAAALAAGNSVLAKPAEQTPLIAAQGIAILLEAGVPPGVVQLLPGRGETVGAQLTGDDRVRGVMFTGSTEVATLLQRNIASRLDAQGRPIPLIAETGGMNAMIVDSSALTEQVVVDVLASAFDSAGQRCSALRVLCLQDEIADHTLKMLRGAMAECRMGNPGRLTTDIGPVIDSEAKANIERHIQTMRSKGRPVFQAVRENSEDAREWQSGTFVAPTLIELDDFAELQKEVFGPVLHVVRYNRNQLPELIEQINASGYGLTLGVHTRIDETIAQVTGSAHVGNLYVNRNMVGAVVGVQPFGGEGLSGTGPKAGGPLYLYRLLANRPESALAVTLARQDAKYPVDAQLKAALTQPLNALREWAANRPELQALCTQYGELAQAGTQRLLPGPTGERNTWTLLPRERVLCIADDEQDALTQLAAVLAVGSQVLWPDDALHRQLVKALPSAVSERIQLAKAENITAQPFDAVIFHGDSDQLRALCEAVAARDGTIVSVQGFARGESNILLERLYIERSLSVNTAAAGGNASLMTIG
Sequence of UniProt P13393 (whole entry, looked up): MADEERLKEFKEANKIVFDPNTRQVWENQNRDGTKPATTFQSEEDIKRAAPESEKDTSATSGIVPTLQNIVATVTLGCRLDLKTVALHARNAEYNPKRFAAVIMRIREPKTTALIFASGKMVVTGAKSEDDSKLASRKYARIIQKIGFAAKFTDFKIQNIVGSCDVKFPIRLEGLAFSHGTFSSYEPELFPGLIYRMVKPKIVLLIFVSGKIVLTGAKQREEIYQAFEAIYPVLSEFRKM
Sequence of UniProt P78804 (whole entry, looked up): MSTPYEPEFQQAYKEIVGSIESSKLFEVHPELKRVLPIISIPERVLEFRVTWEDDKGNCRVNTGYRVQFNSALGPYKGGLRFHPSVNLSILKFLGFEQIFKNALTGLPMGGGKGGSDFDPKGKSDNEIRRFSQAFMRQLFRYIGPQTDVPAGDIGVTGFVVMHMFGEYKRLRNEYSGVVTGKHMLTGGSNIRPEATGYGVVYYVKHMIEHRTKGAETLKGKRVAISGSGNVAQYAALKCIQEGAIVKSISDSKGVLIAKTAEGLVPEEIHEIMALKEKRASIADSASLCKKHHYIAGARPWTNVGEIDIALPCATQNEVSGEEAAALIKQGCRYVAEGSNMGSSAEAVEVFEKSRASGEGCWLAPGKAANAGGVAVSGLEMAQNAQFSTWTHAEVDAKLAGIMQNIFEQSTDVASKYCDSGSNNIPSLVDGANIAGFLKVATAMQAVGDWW
Sequence of UniProt P26208 (whole entry, looked up): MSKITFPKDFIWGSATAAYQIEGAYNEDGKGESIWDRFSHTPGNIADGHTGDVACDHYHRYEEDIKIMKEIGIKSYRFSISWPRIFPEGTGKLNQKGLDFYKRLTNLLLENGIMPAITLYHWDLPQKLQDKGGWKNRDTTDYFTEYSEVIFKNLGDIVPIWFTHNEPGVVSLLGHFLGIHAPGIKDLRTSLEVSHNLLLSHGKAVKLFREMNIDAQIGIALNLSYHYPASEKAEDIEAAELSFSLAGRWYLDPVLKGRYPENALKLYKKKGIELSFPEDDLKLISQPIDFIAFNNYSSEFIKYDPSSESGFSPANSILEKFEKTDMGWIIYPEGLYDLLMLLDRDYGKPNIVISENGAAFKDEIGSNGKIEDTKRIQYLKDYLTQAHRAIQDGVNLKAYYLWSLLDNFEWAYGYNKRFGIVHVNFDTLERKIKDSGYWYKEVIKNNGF
Sequence of UniProt P52961 (whole entry, looked up): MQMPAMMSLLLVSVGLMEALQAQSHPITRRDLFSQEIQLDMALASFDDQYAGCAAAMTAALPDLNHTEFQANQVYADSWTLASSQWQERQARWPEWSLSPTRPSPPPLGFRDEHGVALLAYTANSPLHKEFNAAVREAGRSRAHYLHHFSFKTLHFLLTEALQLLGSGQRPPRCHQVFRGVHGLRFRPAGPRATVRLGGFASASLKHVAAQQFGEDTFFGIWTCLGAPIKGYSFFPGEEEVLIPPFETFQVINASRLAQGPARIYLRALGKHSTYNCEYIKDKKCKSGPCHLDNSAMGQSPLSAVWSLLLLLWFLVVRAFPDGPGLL
Sequence of UniProt H2K887 (whole entry, looked up): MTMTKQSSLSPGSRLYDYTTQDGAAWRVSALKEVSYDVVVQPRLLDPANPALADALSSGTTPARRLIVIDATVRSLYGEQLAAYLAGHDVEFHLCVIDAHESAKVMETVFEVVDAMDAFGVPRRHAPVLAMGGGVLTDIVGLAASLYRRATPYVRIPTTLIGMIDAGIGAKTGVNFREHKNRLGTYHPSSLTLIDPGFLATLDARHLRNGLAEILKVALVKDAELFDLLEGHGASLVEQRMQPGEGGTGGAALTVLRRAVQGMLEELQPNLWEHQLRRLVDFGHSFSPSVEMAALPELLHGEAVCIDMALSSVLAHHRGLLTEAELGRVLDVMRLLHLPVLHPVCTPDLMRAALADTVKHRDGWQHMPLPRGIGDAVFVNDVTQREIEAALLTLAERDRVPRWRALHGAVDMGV

bglA (Acetivibrio thermocellus, UniProt P26208)
kcat (O=[N+]([O-])c1ccc(O[C@@H]2O[C@H](CO)[C@@H](O)[C@H](O)[C@H]2O)cc1; steady-state kinetics; pH 5.5, 60 °C): 839 ± 24 s⁻¹

B1 (enzyme)
kcat (CC(C)C[C@H](NC(=O)CC[C@@H](C)[C@H]1CC[C@H]2[C@@H]3[C@H](O)C[C@@H]4C[C@H](O)CC[C@]4(C)[C@H]3C[C@H](O)[C@]12C)C(=O)O; steady-state kinetics; pH 6.2, 37 °C): 0.7 ± 0.05 s⁻¹

B2 (enzyme)
kcat (OC[C@H]1O[C@@H](n2cnc3c(O)ncnc32)[C@H](O)[C@@H]1O; steady-state kinetics): 22 ± 0.4 s⁻¹

B3 (PRPS1)
log2 fold change (CYB5R4 knockout human cells; PP4 interaction, 3xFLAG-PP4C IP-MS; concentration not given; baseline: CYB5R4 KO over parental): 0.92

gdh N97F (Bacillus subtilis)
kcat (NC(=O)c1ccc[n+]([C@@H]2O[C@H](COP(=O)(O)OP(=O)(O)OC[C@H]3O[C@@H](n4cnc5c(N)ncnc54)[C@H](O)[C@@H]3O)[C@@H](O)[C@H]2O)c1; steady-state kinetics; pH 8, 55 °C): 23.9 ± 0.883 s⁻¹

B4 (enzyme)
kcat (Nc1nc2c(ncn2[C@@H]2O[C@H](COP(=O)(O)OP(=O)(O)OP(=O)(O)O)[C@@H](O)[C@H]2O)c(=O)[nH]1; steady-state kinetics; together with: Mn2+): 0.31 ± 0.01 s⁻¹

enzyme N248Y/Q325R/R246H/R328K (Arabidopsis thaliana, UniProt O24495)
kcat (C[C@@H](O)C(=O)SC[C@H](NC(=O)CC[C@H](N)C(=O)O)C(=O)NCC(=O)O; steady-state kinetics; pH 7.2, 25 °C): 17 ± 2 s⁻¹

DNA 1 CTAATATACACGGATACAAAAGAAATACACATAATTCAATTCAATCGGTCC / DNA 2 GGACCGATTGACTTGAATTATGTGTATTTCTTTTGTATCCGTGTATATTAG (dsDNA; blunt; C:T mismatch; 5'-amino-C6 primer)
Kd (SPT15 full length assumed (Saccharomyces cerevisiae, UniProt P13393); EMSA; double-stranded DNA): 0.037 ± 0.014 µM

B5 (enzyme)
kcat (O=c1ccn([C@@H]2O[C@H](CO[P@@](=O)(O)O[P@@](=O)(O)O[C@H]3O[C@H](CO)[C@@H](O)[C@H](O)[C@H]3O)[C@@H](O)[C@H]2O)c(=O)[nH]1; steady-state kinetics; pH 7.5, together with: SunA): 0.88 ± 0.08 s⁻¹

enzyme (UniProt A0A4R3LQ44)
kcat (O=C(O)[C@H](O)[C@@H](O)[C@@H](O)[C@H](O)CO; steady-state kinetics; pH 7.5, 50 °C): 93 ± 3 s⁻¹

ART1 (Homo sapiens, UniProt P52961)
kcat (CC(=O)N[C@@H](CCCNC(=N)N)C(=O)O; steady-state kinetics; pH 7.5, 25 °C, HEPES 50 mM, together with: saturating NAD+): 9.6 ± 0.9 s⁻¹

B6 (enzyme H459A)
kcat (Nc1ncnc2c1ncn2[C@@H]1O[C@H](COP(=O)(O)OP(=O)(O)OP(=O)(O)O)[C@@H](O)[C@H]1O; steady-state kinetics; pH 8.5, 25 °C, apparent, anoxic, together with: L-Thr 10 mM): 0.027 ± 0.001 s⁻¹

enzyme (Acinetobacter baumannii, UniProt A0A5P1UDB1)
kcat (O=C(O)c1ccc(F)cc1O; steady-state kinetics; pH 7.5, 37 °C, apparent): 0.0118 ± 0.0007 s⁻¹

AUAAUAUUG (ssRNA)
Kd (U2AF2; sequencing of bound RNA; RNA; motif only): 5.07 µM

enzyme (Saccharina japonica, UniProt A0A097IUE3)
kcat (C=C(OP(=O)(O)O)C(=O)O; steady-state kinetics; pH 6.5, 25 °C, together with: 2 mM ADP): 22.7 ± 0.9 s⁻¹

B7 (protein phosphatase 6)
log2 fold change (PP6C (human); co-immunoprecipitation, IP-MS; CYB5R4 knockout cells; concentration not given; baseline: CYB5R4 knockout over parental): 0

B8 (enzyme)
kcat (O=C(O)/C=C/C=C(\O)C(=O)O; steady-state kinetics; pH 7.3, 24 °C): 4600 ± 200 s⁻¹

enzyme (Schizosaccharomyces pombe, UniProt P78804)
kcat (NC(=O)c1ccc[n+]([C@@H]2O[C@H](COP(=O)(O)OP(=O)(O)OC[C@H]3O[C@@H](n4cnc5c(N)ncnc54)[C@H](OP(=O)(O)O)[C@@H]3O)[C@@H](O)[C@H]2O)c1; steady-state kinetics; pH 7, 30 °C, apparent): 13 ± 0.3 s⁻¹

B9 (enzyme)
kcat (N[C@@H](CSSC[C@H](N)C(=O)N[C@H]1[C@@H](O[C@@H](CC(=O)O)C(=O)O)O[C@H](CO)[C@@H](O)[C@@H]1O)C(=O)N[C@H]1[C@@H](O[C@@H](CC(=O)O)C(=O)O)O[C@H](CO)[C@@H](O)[C@@H]1O; steady-state kinetics; pH 8): 2.54 s⁻¹

valA (Streptomyces hygroscopicus, UniProt H2K887)
kcat (O=C(CO)[C@@H](O)[C@H](O)[C@H](O)[C@H](O)COP(=O)(O)O; steady-state kinetics; pH 7.5, 28 °C): 0.01 ± 0.00167 s⁻¹

putA (Escherichia coli, UniProt P09546)
kcat (O=C(O)[C@@H]1CCCN1; steady-state kinetics; pH 7.4, together with: CoQ1): 3.3 ± 0.05 s⁻¹

AUUAGCUUC (ssRNA)
Kd (U2AF2; sequencing of bound RNA; RNA; motif only): 5.15 µM

B10 (enzyme)
kcat (NCCS; steady-state kinetics; pH 8, 25 °C, together with: O2): 0.29 ± 0.08 s⁻¹

enzyme (Homo sapiens, UniProt Q08623)
kcat (O=c1[nH]cc([C@@H]2O[C@H](COP(=O)(O)O)[C@@H](O)[C@H]2O)c(=O)[nH]1; steady-state kinetics; pH 7, 25 °C): 1.65 s⁻¹

enzyme (UniProt A0A7S7NT01)
kcat (CC(=O)N[C@H]1[C@H](Oc2ccc([N+](=O)[O-])cc2)O[C@H](CO)[C@@H](O[C@@H]2O[C@H](CO)[C@H](O)[C@H](O)[C@H]2O)[C@@H]1O; steady-state kinetics; pH 6, 45 °C): 17.1 s⁻¹

Repeated from above:
valA (Streptomyces hygroscopicus, UniProt H2K887)
kcat (O=C(CO)[C@@H](O)[C@H](O)[C@H](O)[C@H](O)COP(=O)(O)O; steady-state kinetics; pH 7.5, 28 °C): 0.01 ± 0.00167 s⁻¹

putA (Escherichia coli, UniProt P09546)
kcat (O=C(O)[C@@H]1CCCN1; steady-state kinetics; pH 7.4, together with: CoQ1): 3.3 ± 0.05 s⁻¹

AUUAGCUUC (ssRNA)
Kd (U2AF2; sequencing of bound RNA; RNA; motif only): 5.15 µM

B10 (enzyme)
kcat (NCCS; steady-state kinetics; pH 8, 25 °C, together with: O2): 0.29 ± 0.08 s⁻¹
